Measurements of several laboratories.
Lines come from different studies, so protocols differ. Numbers after ± are the reported error.

SMILES = N=C(N)NCCC[C@@H]1NC(=O)[C@H](CCCCNC(=O)CNC(=O)CNC(=O)CNC(=O)CC[C@H](NC(=O)CNC(=O)CNC(=O)CNC(=O)CN2CCN(CC(=O)O)CCN(CC(=O)O)CCN(CC(=O)O)CC2)C(=O)NCC(=O)NCC(=O)NCC(=O)NCCCC[C@@H]2NC(=O)[C@@H](Cc3ccccc3)NC(=O)[C@H](CC(=O)O)NC(=O)CNC(=O)[C@H](CCCNC(=N)N)NC2=O)NC(=O)[C@@H](Cc2ccccc2)NC(=O)[C@H](CC(=O)O)NC(=O)CNC1=O [indium-111 labelled]; test system = female athymic nu/nu mice, liver; setting = intravenous, 0.5 h; quantity = tissue uptake; result = 2.45 ± 0.14 %ID/g
SMILES = CC(C)C[C@H](NC(=O)[C@H](Cc1ccc(O)cc1)NC(=O)[C@@H](CCCNC(=N)N)NC(=O)[C@@H](CO)NC(=O)[C@H](Cc1ccccc1)NC(=O)[C@H](CC1CCCCC1)NC(=O)[C@H](CC(=O)O)NC(=O)CN1CCCN2CCN(CCCN(CC(=O)O)CC2)CC1)C(=O)N[C@@H](Cc1c[nH]c2ccccc12)C(=O)N[C@@H](CO)C(=O)O [copper-64 labelled]; test system = female NMRI nude mice, spleen; setting = 22 h p.i.; quantity = tissue uptake; result = 2.9 ± 0.7 %ID/g
SMILES = N=C(N)NCCC[C@@H]1NC(=O)[C@H](CCCCNC(=O)CC[C@H](NC(=O)CC[C@H](NC(=O)CN2CCN(CC(=O)O)CCN(CC(=O)O)CCN(CC(=O)O)CC2)C(=O)N[C@@H](CCC(=O)NCCCC[C@@H]2NC(=O)[C@@H](Cc3ccccc3)NC(=O)[C@H](CC(=O)O)NC(=O)CNC(=O)[C@H](CCCNC(=N)N)NC2=O)C(=O)NCCCC[C@@H]2NC(=O)[C@@H](Cc3ccccc3)NC(=O)[C@H](CC(=O)O)NC(=O)CNC(=O)[C@H](CCCNC(=N)N)NC2=O)C(=O)NCCCC[C@@H]2NC(=O)[C@@H](Cc3ccccc3)NC(=O)[C@H](CC(=O)O)NC(=O)CNC(=O)[C@H](CCCNC(=N)N)NC2=O)NC(=O)[C@@H](Cc2ccccc2)NC(=O)[C@H](CC(=O)O)NC(=O)CNC1=O [indium-111 labelled]; test system = female athymic nu/nu mice, liver; setting = intravenous, 24 h; quantity = tissue uptake; result = 2.15 ± 0.57 %ID/g
SMILES = CC(C)C[C@H](NC(=O)C[C@H](O)[C@H](CC(C)C)NC(=O)[C@H](Cc1c[nH]cn1)NC(=O)CNC(=O)[C@@H](NC(=O)[C@H](C)NC(=O)[C@H](Cc1c[nH]c2ccccc12)NC(=O)[C@H](CCC(N)=O)NC(=O)[C@@H](Cc1ccccc1)NC(=O)CCOCCOCCOCCNC(=O)CN1CCN(CC(=O)O)CCN(CC(=O)O)CC1)C(C)C)C(N)=O [gallium-68 labelled]; test = radio-HPLC; test system = Balb/c mouse, serum; setting = intravenous, 37 MBq, 5 min; quantity = intact parent compound; result = 88.9%
SMILES = CCCC[C@H](NC(=O)CNC(=O)CNC(=O)CN1CCN(CC(=O)O)CCN(CC(=O)O)CCN(CC(=O)O)CC1)C(=O)N[C@H]1CC(=O)NCCCC[C@@H](C(N)=O)NC(=O)[C@H](Cc2c[nH]c3ccccc23)NC(=O)[C@H](CCCNC(=N)N)NC(=O)[C@@H](Cc2ccccc2)NC(=O)[C@H](Cc2c[nH]cn2)NC1=O [lutetium-177 labelled]; test system = C57 mouse, female, stomach; setting = intravenous, 0.037 MBq, 24 h; quantity = tissue uptake; result = 0.69 ± 0.09 %ID/g
SMILES = CC(C)C[C@@H](NC(=O)[C@@H](CC(C)C)NC(=O)[C@@H](CC(=O)O)NC(=O)[C@@H](CC(C)C)NC(=O)[C@@H](CC(C)C)NC(=O)[C@@H](CC(C)C)NC(=O)[C@H](NC(=O)[C@@H](CC(=O)O)NC(=O)[C@H](NC(=O)[C@H]1CCCN1C(=O)[C@@H](Cc1ccccc1)NC(=O)[C@@H](CC(C)C)NC(=O)[C@@H](CC(C)C)NC(=O)[C@@H](CC(=O)O)NC(=O)[C@@H](CC(C)C)NC(=O)[C@@H](Cc1ccc(O)cc1)NC(=O)[C@@H](C)NC(=O)[C@@H](CCCNC(=N)N)NC(=O)[C@@H](Cc1c[nH]c2ccccc12)NC(=O)[C@H]1CCCN1C(=O)[C@@H](CC(N)=O)NC(=O)[C@@H](CCC(N)=O)NC(=O)[C@@H](CC(=O)O)NC(=O)[C@@H](CC(=O)O)NC(=O)[C@@H](CS)NC(=O)[C@@H](C)NC(=S)Nc1ccc(CC2CN(CC(=O)O)CCN(CC(=O)O)CCN2CC(=O)O)cc1)[C@H](C)O)[C@H](C)O)C(=O)N[C@H](Cc1c[nH]c2ccccc12)C(=O)O (stereo partly drawn) [copper-64 labelled]; test system = female BALB/c mice, 4T1 orthotopic tumour; setting = intravenous, 2 h; how to read = baseline: kidney over large intestine; quantity = kidney-to-large intestine ratio; result = 0.29 ± 0.12
SMILES = CCCC[C@H](NC(=O)COCCOCCNC(=O)CN1CCN(CC(=O)O)CCN(CC(=O)O)CC1)C(=O)N[C@H]1CC(=O)NCCCC[C@@H](C(N)=O)NC(=O)[C@H](Cc2c[nH]c3ccccc23)NC(=O)[C@H](CCCNC(=N)N)NC(=O)[C@@H](Cc2ccccc2)NC(=O)[C@H](Cc2c[nH]cn2)NC1=O [copper-64 labelled]; test system = C57 mice, stomach; setting = intravenous, 0.37 MBq, 0.5 h; quantity = tissue uptake; result = 2.21 ± 0.56 %ID/g
SMILES = CCCC[C@H](NC(=O)CNC(=O)CNC(=O)CN1CCN(CC(=O)O)CCN(CC(=O)O)CC1)C(=O)N[C@H]1CC(=O)NCCCC[C@@H](C(N)=O)NC(=O)[C@H](Cc2c[nH]c3ccccc23)NC(=O)[C@H](CCCNC(=N)N)NC(=O)[C@@H](Cc2ccccc2)NC(=O)[C@H](Cc2c[nH]cn2)NC1=O [technetium-99m labelled]; test system = C57 mouse, stomach; setting = iv, 0.037 MBq, 0.5 h; quantity = tissue uptake; result = 1.11 ± 0.42 %ID/g
SMILES = COc1ccc2cc([C@H](C)C(=O)N[C@H](Cc3ccccc3)C(=O)N[C@H](Cc3ccccc3)C(=O)O)ccc2c1; test system = hydrogel 0.8 wt% into PBS; setting = 24 h, pH 7.4, 37 °C; quantity = cumulative release; result = 6.5%

Excerpt of the above:
SMILES = COc1ccc2cc([C@H](C)C(=O)N[C@H](Cc3ccccc3)C(=O)N[C@H](Cc3ccccc3)C(=O)O)ccc2c1; test system = hydrogel 0.8 wt% into PBS; setting = 24 h, pH 7.4, 37 °C; quantity = cumulative release; result = 6.5%
